Measured values from different studies.
A part holds a random share of what one study measured.

Study 1
Target: Centromere-binding protein 1, full length, His-tagged (CBF1, Saccharomyces cerevisiae, UniProt P17106, residues 1-351)
Sequence of UniProt P17106 (whole entry, looked up): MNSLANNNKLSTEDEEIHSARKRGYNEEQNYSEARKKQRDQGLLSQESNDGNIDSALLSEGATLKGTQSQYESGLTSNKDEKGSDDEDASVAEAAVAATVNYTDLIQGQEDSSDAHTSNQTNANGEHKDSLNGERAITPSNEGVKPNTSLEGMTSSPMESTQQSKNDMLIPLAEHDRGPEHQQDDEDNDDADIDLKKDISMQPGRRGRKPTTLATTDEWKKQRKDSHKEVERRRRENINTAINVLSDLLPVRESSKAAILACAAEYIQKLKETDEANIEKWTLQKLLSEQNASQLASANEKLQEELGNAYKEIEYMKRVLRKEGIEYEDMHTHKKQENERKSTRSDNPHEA
Method: competition protein-binding microarray
Form: double-stranded DNA, one strand shown
Medium: in vitro
Tested at: 2 µM
Setting: whole 60-bp probe, lowest competitor level
Together with: Pho4 competitor, 0.05 µM
Direction: higher = stronger binding
Constant ends, left off below: … GTCTTGATTCGCTTGACGCTGCTG
Oligonucleotide | fluorescence intensity
CGCCTTGTGCTACTGGACGTGTGTTTGGTTTTATGT | 66.2 a.u.
GTTGGGCCACCGGGACCCATGTCTGCGTCCGCGATA | 44.2 a.u.
AAAGCGGTAATTTTTCACGTGCCTTCACATATCTAT | 1330 a.u.
CATACCCAACCTTGGCATGTGGGTGAAGATATTTGT | 95.8 a.u.
CGGTGGTATAGAAATGACGTGCCAGGCATAAGGTGA | 56.7 a.u.
TCCAACGTATCAGTGCGCGTAATCCTTCTCTTGGTA | 57.7 a.u.
TCGAATAAAGTGAAACATGTGATACCCGCCATCCAA | 641 a.u.
TCAGATGCGCTGATGGGCGTGCTTTACACCCATCAG | 64.1 a.u.
CCAGCAGGAAATAGCCCCGTGCTTTTCCATCCTGAC | 143 a.u.
CCGCCGCTGCTTTTGCACGTGAGTCCCGCGGATTTT | 1540 a.u.
CTCAGTACTGATTGACACATGATTATACTGCGAGAC | 240 a.u.
CATACCCAACCTTACCACGTGTTTTAAGATATTTGT | 1640 a.u.
CTAACGAAGGTTTGGTGGGTGGGTGACAAGCCAAGT | 65.6 a.u.
GTCTTGTCTCATTGATGGGTGGGTGTCCCCACTTCA | 96.7 a.u.
CTTTCCCGATCTTTTCACGTGGCTTTAGCACATTTG | 905 a.u.
CTTGGTGAAAATGGTAACGTGACTCGGTGTTGTTTT | 1930 a.u.
AGATTGCCTCCCTGACATGTGGTGGCAGAAAACCTG | 105 a.u.
TCAAAACCAAGAATTGATGTGCAGGAAAATGAAGAT | 77.2 a.u.

Study 2
Target: Fragile X messenger ribonucleoprotein 1, C-terminal low-complexity region (Fmr1, Mus musculus, UniProt P35922)
Method: RNA Bind-n-Seq
Form: RNA
Medium: in vitro
Tested at: 200 nM
Setting: whole 134-nt RNA, ends assumed
Together with: 150 mM KCl
Baseline: input library
Direction: higher = stronger binding
Constant ends, left off below: GGGAGUUCUACAGUCCGACGAUC … UGGAAUUCUCGGGUGUCAAGG
Oligonucleotide | log2 enrichment
GCAGGAAGUAAAAACAAAUGGAAAUGCUUCGGAUAGUGGCAGGGGUGGGGGUUGCUAAGGAAAGGGUGGGAUGGGAGUGGGUAAAGUGUU | 0.211
CCUGUGCUACACAUCGUAUGUACCGAAUCGGGGAAAAAAAGGAAAAAAAGGAAAAAAAGGGAAAGUAUUAUGUUACGCCGUUCGGAUCUG | -0.776
GGGGGUGACCGCCGGAGCGCGGCGUGAGCCCUCCCCCUUGGGAUCCCGCAGCUGACCAGUCGCGCUGACGGACAGACAGACAGACACCGC | -0.695
GCAGGAAGUAAAAACAAAUGGAAAUGCUUCGGAUAGUGGCAGGGGUGGGGGUUGCUAAGGAAAGGGUGGGAUGGGAUUGGGUAAAGAGUU | 0.262
UGCUAGGACUUGAUGGAUCACUAGUUUUUCUGGUAAGUAAAACUAAUUUUUUUUUUUUUUUUUUGAGACGGAAUCUCACUCUGUCACCCA | 0.594
ACCAUGCAGGUGGGCAUCUUUGGGAACUGGGGCAAGGGGGGGAUAGGGAGGGGGGUAACACUUUGGGAACAGGUGGUCCCAGGUCGUUUC | 0.847
CAAGUCCUGUGCUACACAUCGUAUGUACCGAAUCGGUUUGGGGUUUGGGGUUUGGGAAAGUAUUAUGUUACGCCGUUCGGAUCUGCACUU | 0.102
CCUGUGCUACACAUCGUAUGUACCGAAUCGGGUUUUUUGGGGUUUUUUGGGUUUUUUGGGAAAGUAUUAUGUUACGCCGUUCGGAUCUGC | -0.139
UUUGCAGGGAGUGGUACGGGUAUCACUUUCCGGAGCUGGUGAAGAUCAUCAACGACAAUGCCACAUACUGCCGUCUUGCCCAGUUUAUUG | -0.654
CACAGACAACACGCACCCACACAGACACAGAGGAAAGGGGUUGGGAUGGGGACAGGGUGCACAGCAGGGCGGGGUAGGACCCCAGCCCCU | 1.17
CUCAAGUCCUGUGCUACACAUCGUAUGUACCGAAUCGGCCGGGGCCGGCCGGGAAAGUAUUAUGUUACGCCGUUCGGAUCUGCACUUCCA | -0.305
UCAAGUCCUGUGCUACACAUCGUAUGUACCGAAUCGGGUUUGGGUUUGGGUGGGAAAGUAUUAUGUUACGCCGUUCGGAUCUGCACUUCC | 1.36
AAGUCCUGUGCUACACAUCGUAUGUACCGAAUCGGCCCCGGGCCCCGGGCCCCGGGAAAGUAUUAUGUUACGCCGUUCGGAUCUGCACUU | -0.796
UGUCCUGUGCUUUCACAUUCUUUCUGCAUGGAGAAAGUAAUGUAUGCACAAGUGUGGAGAUUGCCCAGCACCAGCCAAUUUAUUUGAUCA | -1.1

Study 3
Target: Sal-like protein 4, full length isoform A (SALL4, Homo sapiens, UniProt Q9UJQ4, residues 1-1053)
Sequence of UniProt Q9UJQ4 (whole entry, looked up): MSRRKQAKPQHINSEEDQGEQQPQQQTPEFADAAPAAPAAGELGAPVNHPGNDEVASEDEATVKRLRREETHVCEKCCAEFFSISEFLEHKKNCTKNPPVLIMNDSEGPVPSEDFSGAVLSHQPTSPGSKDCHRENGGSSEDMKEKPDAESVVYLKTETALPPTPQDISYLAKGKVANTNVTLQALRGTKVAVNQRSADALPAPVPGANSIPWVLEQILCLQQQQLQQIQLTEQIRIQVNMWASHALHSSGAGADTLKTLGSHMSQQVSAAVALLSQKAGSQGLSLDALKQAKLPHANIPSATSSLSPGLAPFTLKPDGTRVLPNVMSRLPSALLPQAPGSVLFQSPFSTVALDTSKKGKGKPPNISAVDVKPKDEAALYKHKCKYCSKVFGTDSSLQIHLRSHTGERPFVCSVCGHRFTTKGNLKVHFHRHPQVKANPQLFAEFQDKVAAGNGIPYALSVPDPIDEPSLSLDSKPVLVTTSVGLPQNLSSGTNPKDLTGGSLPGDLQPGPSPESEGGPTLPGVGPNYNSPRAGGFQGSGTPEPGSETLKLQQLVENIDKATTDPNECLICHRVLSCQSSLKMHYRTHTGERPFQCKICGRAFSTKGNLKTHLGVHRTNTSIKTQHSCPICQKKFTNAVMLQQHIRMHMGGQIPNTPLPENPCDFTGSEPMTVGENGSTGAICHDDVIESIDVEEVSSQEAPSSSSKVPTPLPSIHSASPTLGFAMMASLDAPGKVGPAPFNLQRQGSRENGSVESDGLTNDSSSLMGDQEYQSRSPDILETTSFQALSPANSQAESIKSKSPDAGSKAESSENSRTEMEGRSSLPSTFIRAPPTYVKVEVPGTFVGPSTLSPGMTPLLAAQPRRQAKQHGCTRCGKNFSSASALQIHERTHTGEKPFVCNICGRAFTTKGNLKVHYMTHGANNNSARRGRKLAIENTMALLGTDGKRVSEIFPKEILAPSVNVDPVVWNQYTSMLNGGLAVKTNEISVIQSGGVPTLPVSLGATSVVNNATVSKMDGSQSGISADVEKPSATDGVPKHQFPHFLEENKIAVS
Method: universal PBM
Form: double-stranded DNA, one strand shown
Medium: in vitro
Tested at: 600 nM
Setting: 8-mer, flanks averaged, mean of replicates
Direction: higher = stronger binding
Oligonucleotide | E-score
AATTACGC | 0.165
CACCCTCG | -0.301
AAGAGGTC | -0.121
CTAAGATA | 0.129
GGGTTGAC | -0.247
GCCGTCAA | -0.245
TGACAAAA | 0.284
GGCCTGGA | -0.336
ATACTGCA | 0.125
GAGGTGAA | -0.00684
CTATAGGC | 0.0176
CGGAATTC | -0.0672
ACATGGGA | -0.0163
CTCATGAG | -0.0329
TCCGAGCA | -0.139
TATGGTGA | 0.13
GATCTTCA | 0.0565
CATGACGG | -0.116
ATTTAACG | 0.203
AATTACCT | 0.267
ATTACAGG | 0.177
AGATCTTG | 0.0561
CGGCCTAG | -0.261

Study 4
Target: Histone acetyltransferase KAT6A, both winged helices, GST fusion (KAT6A, Homo sapiens, UniProt Q92794, residues 1-181)
Method: protein binding microarray
Form: double-stranded DNA, one strand shown
Medium: in vitro
Tested at: not given
Setting: 8-mer, flanks averaged, mean of 2 arrays, mostly near background
Baseline: not given
Direction: higher = stronger binding
Residues (chain): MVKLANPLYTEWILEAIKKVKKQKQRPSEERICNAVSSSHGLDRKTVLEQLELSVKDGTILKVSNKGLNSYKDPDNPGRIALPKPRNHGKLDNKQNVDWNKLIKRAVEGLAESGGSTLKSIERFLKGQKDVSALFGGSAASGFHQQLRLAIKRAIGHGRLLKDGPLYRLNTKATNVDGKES
Oligonucleotide | E-score
GTCACCTA | -0.0605
CAGGGAAC | -0.172
ACGGCCCT | 0.0521
CAAGACGC | 0.134
GACGGATA | 0.253
AATGCTAG | -0.119
CCAAATCC | -0.196
ACTAAGAC | -0.0198
ACCTGCCA | -0.252
ACACAGGT | -0.138
ATTTATCC | 0.0406
CGTGCGCC | 0.229
TAAAACTA | -0.0483
CCGTAAAG | 0.216
AGATAGAT | -0.116
GATGTCCC | 0.132
GCCCGCAC | 0.196

Study 5
Target: RNA binding protein fox-1 homolog 2, RRM domain, GST-SBP tag (RBFOX2, Homo sapiens, UniProt O43251-10, residues 100-194)
Method: RNA Bind-n-Seq
Form: RNA
Medium: in vitro
Tested at: 365 nM
Setting: natural RNA segment, single round, ends assumed
Baseline: no-protein control
Direction: higher = stronger binding
Constant ends, left off below: GGGAGUUCUACAGUCCGACGAUC … UGGAAUUCUCGGGUGCCAA
Target sequence (chain): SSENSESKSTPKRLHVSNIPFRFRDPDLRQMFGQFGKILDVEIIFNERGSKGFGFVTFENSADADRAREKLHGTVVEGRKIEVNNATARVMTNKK
Oligonucleotide | RBNS enrichment (R)
ACUCACAAACUAAACUCCUUUCUGGUUGUCUGUUUUCAAAAUAGAUACAAUAAACAUUGUUUAUGUCUGGGUGCUGCUGUACAGAAUGCUUCAAGUGUGUUUUGGUUGAA | 0.51
AUAUAUUCUACUACUAAAGGUAUCAAUGGAACAUGAAGACGAGUAUUUAGGCAGAAGCAAAACAGGAAACCAUCCUUACAAACAUGCUUACCUGCACAUCUGUUUGCAUG | 0.687
CCAUGACAGACUGUGCUCCUAUCCUGGGUUGAGUCCCGAUGCAUAUUCCUGCUUCAUUUCCUUUUCUCAAGGGCCGCUUCCCCGGACCCUCCUGUCAUAGGCCCCACUUG | 0.537
ACUUUAAUAUAAAGUAGUCCUGUGAAUGCCACUGCCUUCGCUUCUUGCCUCUGUGCUGUGUGUGACGUGACCGGACUUUUCUGCAAACACCAACAUGUUGGGAAACUUGG | 0.522
UGAAUAUAGAGACCAAGUUUACCACUUCUGAUGAAGAGACCAAUUAAGAUUCAUUCCUCAUUCUGUUUCUUUCCAGUGGGAGAAGAGUCCCCAUGAAAUAAGAUGAAACU | 0.258
CAAAUUUGGAAAAGUUGUCCCAUCCCUUCCCCCUUUGCCCCAGUGUCCCUGCUCACUUCCAGUCAGGUCUCAGCUCCACCCCACUGUUUCUUGGUCAGCCUCAGUGAUGG | 0.549
GCGUGAGGAUGGUGGACAGGUAGAAGUUCCAGCCCAGGCAGAUGUGGACAAACAGGGCUCCUGCGUACAGGUCAAUCUAGGGAAAGCAGAGUUGGGCAGAAGUCAGACAU | 0.731
CUGAACUCCAGACCCCUCUUUGUGUUGGGCAGUGUCAUCUUGCUUACAAACUGUAAGACACAUUUUUUUGUGUGUUUGUUUUUGUUGUUGUUCUUUUGCAGCACUCACGC | 0.906
UCAGGCUACGGGCUGCCUGAGUGGAAACCUGGGAUGGUGGAGAAUUCCCAAGCCACAGCCCUUUUGUCUCGGGGAACUCCCUUCUUCACAGAGAAGGAGGUGGGGGCUGU | 1.01
UCCACUUGAUCCUUUUCUUUGUUUUAGUGUGAAUUUCAGCAGCUCCAUCUGUCUUCAUGAUUGUACUUGAGCAGUAUUAGCUGUAUGAGUUAAUUUUAUUCAGAUUGAAG | 0.408
GCAAAUGCUGAACAAGGAGACAGACACACACUAAUCCUCAGCACAGAGCUGGAAAGCUCAUUUCUGGAAUGUUCUAUUUGAGAAUUGCCAUUUCUGGGGUUUGUCUGUUC | 0.459
UUUGAAGCCAGCCUGGCUACUUGAGACUCUGUCUCACAAAAGCAAAUAAACAAAGGAUUAUGCUUAAUAGUUUUCAUUGAAGUUUAUUAUAACUUAUUUCAGAUGUGUCC | 0.499

Single results of other studies
Molecule | target | assay | test system | conditions | scale | endpoint | result
PhoQ, residues 284 288 289 292 302 303 TTCLQL | PhoP, residues 12 14 15 18 19 LHHSG (Escherichia coli, UniProt P23836) | Sort-seq, measured: YFP reporter | E. coli | PhoQ-PhoP variant library, together with: 10 µM Mg2+ | baseline: high Mg2+ state, higher = stronger signaling | fold induction | 2.41

For quick reference, copied from above (study 2):
Oligonucleotide | log2 enrichment
CUCAAGUCCUGUGCUACACAUCGUAUGUACCGAAUCGGCCGGGGCCGGCCGGGAAAGUAUUAUGUUACGCCGUUCGGAUCUGCACUUCCA | -0.305
CCUGUGCUACACAUCGUAUGUACCGAAUCGGGUUUUUUGGGGUUUUUUGGGUUUUUUGGGAAAGUAUUAUGUUACGCCGUUCGGAUCUGC | -0.139
UGCUAGGACUUGAUGGAUCACUAGUUUUUCUGGUAAGUAAAACUAAUUUUUUUUUUUUUUUUUUGAGACGGAAUCUCACUCUGUCACCCA | 0.594
UUUGCAGGGAGUGGUACGGGUAUCACUUUCCGGAGCUGGUGAAGAUCAUCAACGACAAUGCCACAUACUGCCGUCUUGCCCAGUUUAUUG | -0.654
CACAGACAACACGCACCCACACAGACACAGAGGAAAGGGGUUGGGAUGGGGACAGGGUGCACAGCAGGGCGGGGUAGGACCCCAGCCCCU | 1.17
UCAAGUCCUGUGCUACACAUCGUAUGUACCGAAUCGGGUUUGGGUUUGGGUGGGAAAGUAUUAUGUUACGCCGUUCGGAUCUGCACUUCC | 1.36
AAGUCCUGUGCUACACAUCGUAUGUACCGAAUCGGCCCCGGGCCCCGGGCCCCGGGAAAGUAUUAUGUUACGCCGUUCGGAUCUGCACUU | -0.796
GCAGGAAGUAAAAACAAAUGGAAAUGCUUCGGAUAGUGGCAGGGGUGGGGGUUGCUAAGGAAAGGGUGGGAUGGGAUUGGGUAAAGAGUU | 0.262
CCUGUGCUACACAUCGUAUGUACCGAAUCGGGGAAAAAAAGGAAAAAAAGGAAAAAAAGGGAAAGUAUUAUGUUACGCCGUUCGGAUCUG | -0.776
GGGGGUGACCGCCGGAGCGCGGCGUGAGCCCUCCCCCUUGGGAUCCCGCAGCUGACCAGUCGCGCUGACGGACAGACAGACAGACACCGC | -0.695
GCAGGAAGUAAAAACAAAUGGAAAUGCUUCGGAUAGUGGCAGGGGUGGGGGUUGCUAAGGAAAGGGUGGGAUGGGAGUGGGUAAAGUGUU | 0.211
UGUCCUGUGCUUUCACAUUCUUUCUGCAUGGAGAAAGUAAUGUAUGCACAAGUGUGGAGAUUGCCCAGCACCAGCCAAUUUAUUUGAUCA | -1.1
